Measured values from different studies.
Parts stem from different laboratories: compare values within a part only.

Sample 1
Target: Sal-like protein 4, full length isoform B (SALL4, Homo sapiens, UniProt Q9UJQ4-2, residues 1-616)
Method: universal PBM
Form: double-stranded DNA, one strand shown
Sample: in vitro
Tested at: not given
Setting: 8-mer, flanks averaged, mean of replicates
Reading: higher = stronger binding
Construct (chain): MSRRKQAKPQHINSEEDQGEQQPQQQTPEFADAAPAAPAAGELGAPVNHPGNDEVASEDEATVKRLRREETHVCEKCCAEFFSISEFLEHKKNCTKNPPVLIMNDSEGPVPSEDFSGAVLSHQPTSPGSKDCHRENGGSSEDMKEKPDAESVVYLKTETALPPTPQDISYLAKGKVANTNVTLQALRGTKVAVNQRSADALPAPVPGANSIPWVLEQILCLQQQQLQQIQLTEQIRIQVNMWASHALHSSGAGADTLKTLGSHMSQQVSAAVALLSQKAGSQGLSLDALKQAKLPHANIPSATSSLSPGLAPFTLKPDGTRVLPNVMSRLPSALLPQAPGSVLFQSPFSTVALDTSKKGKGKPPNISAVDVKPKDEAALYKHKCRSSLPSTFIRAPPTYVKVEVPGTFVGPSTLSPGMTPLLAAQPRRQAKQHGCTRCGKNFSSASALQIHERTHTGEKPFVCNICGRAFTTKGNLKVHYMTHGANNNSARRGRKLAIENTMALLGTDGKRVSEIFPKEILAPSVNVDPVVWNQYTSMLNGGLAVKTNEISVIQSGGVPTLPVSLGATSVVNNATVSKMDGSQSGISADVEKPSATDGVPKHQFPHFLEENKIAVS
Sequence | E-score
CTCAGAGA | -0.232
AATCGAAG | 0.0469
CGCAGCGC | -0.203
GCGATTCC | -0.189
GACGGAAC | -0.101
CTATTGAG | 0.0595
CAGTTTAG | 0.00883
CTATGCAG | 0.0883
CCCACAGA | -0.116
ACTCCTAT | 0.161
CCCCTGGC | -0.288
ACGAGCGC | -0.199
GCCACTAC | -0.19
AGCCTCAG | -0.215
ATTACCTA | 0.233
GGTATAAC | 0.193
CGGGGGAA | -0.204
GCAGATCC | -0.11

Sample 2
Target: Histone acetyltransferase KAT6A, both winged helices, GST fusion (KAT6A, Homo sapiens, UniProt Q92794, residues 1-181)
Method: protein binding microarray
Form: double-stranded DNA, one strand shown
Sample: in vitro
Tested at: not given
Setting: 8-mer, flanks averaged, mean of 2 arrays, mostly near background
Relative to: not given
Reading: higher = stronger binding
Residues (chain): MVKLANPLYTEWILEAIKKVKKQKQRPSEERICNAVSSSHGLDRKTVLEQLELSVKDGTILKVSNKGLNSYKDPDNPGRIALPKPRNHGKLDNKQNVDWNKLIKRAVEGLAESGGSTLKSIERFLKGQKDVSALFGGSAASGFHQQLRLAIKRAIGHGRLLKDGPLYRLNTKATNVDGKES
Sequence | E-score
CCGCGTAC | 0.265
ACTACTAT | -0.0975
ACATTGCG | 0.147
CATAGCGA | 0.0179
CTACACAA | -0.0534
GGAAGGAC | -0.118
GAACTGCC | -0.0896
TGAAGCAA | -0.129
CCTAAACA | -0.0353
ATTCCAAG | -0.168
ATCTCAGC | 0.0341
GTCTCGAA | -0.104
ACGTCTCC | -0.0378
CGAGCTCC | -0.00853
ACCCGTCT | 0.158
ACTGCAAT | -0.0652
ATGTAATG | -0.0259

Sample 3
Target: RNA binding protein fox-1 homolog 2, RRM domain, GST-SBP tag (RBFOX2, Homo sapiens, UniProt O43251-10, residues 100-194)
Method: RNA Bind-n-Seq
Form: RNA
Sample: in vitro
Tested at: 365 nM
Setting: natural RNA segment, single round, ends assumed
Relative to: no-protein control
Reading: higher = stronger binding
All sequences stand within: GGGAGUUCUACAGUCCGACGAUC … UGGAAUUCUCGGGUGCCAA
Target sequence (chain): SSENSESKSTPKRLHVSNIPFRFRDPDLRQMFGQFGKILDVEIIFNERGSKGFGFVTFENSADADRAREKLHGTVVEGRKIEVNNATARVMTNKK
Sequence | RBNS enrichment (R)
ACCCAUGGUACCAAUCAUGAAUCUUUGUUUCAGGUUCAGUAUUAUGUAGUUGUUCGUUGGUUAUACAAGUUCUUGGUCCCUCCAGAACCACCCCGGCCCCCUGCCCGUUC | 0.335
UGCGUUGACCUGCCUUGUCUUACGGUACACACAGCAAUAAAGCCUGGGUUCCGCCCGGUCUCCACCCUCCCUCCGCCUCCCUUGGUUAGUUUCACAGUGCUGGCAAUGAA | 0.735
AUCAUUACCCUGAGCGAGCUGGAAGGGUGGUCACCCUGCACCUAGCCAGCCAUGCAGGCUCCAUCAGGCACCGUGUCCCCAGGGGUGGGCAUGAACCAGUGCGCCACAUG | 0.457
UCUCAAAACUACCAUUUGAAUUUCAAGAACUCUGCUGCAAAACCACUCUGAGAAUGUUUCCAAGUGAGAGUCACUUUCUUGACCCUCAAGAGAAGCUAGACGACACAGAA | 0.452
AUGCUGUACACCCUAUCCAUCUGUCAGGAGCUGGGGCAAGGAGCCAGAACCCUCUGCGCCUUGAGAUGAGUCUGCCAUGAGAACUUGCUCACGCUGCAGAGUCUCUGUGG | 0.398
GAAAUAAGGUGACAAGUAAAGACUUUUAUAAUACCUACCUUCAAAAUUAGAAUCAGCAGCACUGUACAAAUAAAGUGCCUGUGCUUCACCUCACACCAAGAAUCUUGCCU | 0.571
CAUCAUCUCCAGAACUCCCAGCGGGGCUCCCUGAGCUCUCAAGGAGAUGCUGCCAUCACUGGGAGGCUCAGAGGACCCUUCCUGCCCACCUUCGGAGACGGCUUCUGGAG | 0.238
UGGACAGGAAGAUGGCAGAAGCUACGCUAUUGUCAUAGCAAAAGAGCUUUCUAUUUGGCACAUACCAGGGGUCCAGCUACUGGAAGGGCUCUACCCCAAACUCUGAGGAC | 0.368
UUAUUUAUAUCAUGUAUCUCUAAGGACCUAAAAGCACUUUAUGUAGUUUUUAAUUAAUCUUAAGAUCUGGUUACGGUAACUAAAAAAGCCUGUCUGCCAAAUCCAGUGGA | 0.29
AGUCUUGCCAACAAGUGCCAAAUAUCUGAGGAACCCAGGAACCCAGGGGAUCCCUUCCCCCAAGCCCGUCAGUAGCGUCAGCUUGGGGCCUCUCGGGACUCCUGUUGUAG | 0.298
GUGCCUCUCUGUAUCCUAUGGAAAGCAGCCCCAUGCUUUCUGCUCCCCUCUGCACUCUCUCACAGGGACAAACUUGCAGAUACAUCCGAUAGGGUCUUGGCUUUCUACUG | 0.501
CAAUAGGGUUUAUUUGGCAGUGGGAUUCACAUCUUCCUGCACUCCUGCCAGCAGUACAGGGCACAGCCCAAGCCACCAUAGGCCAGCCUGGAGUCUUUUUCAUGCUCUGG | 0.237

Further values, each from its own experiment
Molecule | target | test | system | conditions | how to read | endpoint | value
PhoQ, residues 284 288 289 292 302 303 SLKLQV | PhoP, residues 12 14 15 18 19 LHATL (Escherichia coli, UniProt P23836) | Sort-seq, measured: YFP reporter | E. coli | PhoQ-PhoP variant library, with: 10 µM Mg2+ | relative to: high Mg2+ state, higher = stronger signaling | fold induction | 1.23

For quick reference, copied from above (sample 2):
Sequence | E-score
CCGCGTAC | 0.265
ACTACTAT | -0.0975
ACATTGCG | 0.147
CATAGCGA | 0.0179
CTACACAA | -0.0534
